Measurements gathered from unrelated publications.
Values joined by “and” are separate records of one study, mostly repeats; a detail may differ. ± marks the error that the study gave.
GAP50: Glideosome-associated protein 50 (GAP50, Plasmodium falciparum, UniProt Q8I2X3)
NADH dehydrogenase [ubiquinone] iron-sulfur protein 7, mitochondrial/NADH dehydrogenase [ubiquinone] iron-sulfur protein 2, mitochondrial/MT-ND1: NADH dehydrogenase [ubiquinone] iron-sulfur protein 7, mitochondrial/NADH dehydrogenase [ubiquinone] iron-sulfur protein 2, mitochondrial/MT-ND1 (Homo sapiens, UniProt O75251+O75306+P03886)
TRPM8: Transient receptor potential cation channel subfamily M member 8 (TRPM8, Homo sapiens, UniProt Q7Z2W7)
FFAR4: Free fatty acid receptor 4 (FFAR4, Homo sapiens, UniProt Q5NUL3)
Kir3.1/Kir3.2: Kir3.1/Kir3.2 (Homo sapiens, UniProt P48051+P48549)
Maoa: Amine oxidase [flavin-containing] A (Maoa, Rattus norvegicus, UniProt P21396)

SMILES | target | assay | test system | conditions | scale | measurement | value
NC(N)=Nc1ccc(-c2ccc(-c3ccc(N=C(N)N)c(Cl)c3)o2)cc1Cl | GAP50 | binding, surface plasmon resonance |  | 1:1 binding model |  | koff | 0.0312 s⁻¹
O=C(COP(=O)(O)O)[C@@H](O)[C@H](O)[C@H](O)COP(=O)(O)O | PGM1 (Homo sapiens, UniProt P36871) | thermal proteome profiling | HepG2 cell lysate | concentration not given, 57 over 37 °C, mean | relative to: compound over control | thermal stability ratio | 4.29
Cc1[nH]c(N)nc1CCC(=O)c1ccccc1.Cl | Voltage-gated hydrogen channel 1 (HVCN1, Homo sapiens, UniProt Q96D96, F150A) | proton current, inhibitor, inside-out patch clamp |  |  |  | Hill coefficient | 0.92 ± 0.03
C=CC(=O)N1CCN(c2nc(OC[C@@H]3CCCN3C)nc3c(F)c(-c4nc(N)cc(C)c4C(F)(F)F)c(Cl)cc23)[C@@H](C)C1 | GTPase KRas, GDP-bound (KRAS, Homo sapiens, UniProt P01116, Q61R) | binding, surface plasmon resonance |  |  |  | association rate constant | 154000 ± 5300 M⁻¹ s⁻¹
CCCCCCCCC(=O)c1cc(O)c(O)c(O)c1 | Nuclear receptor subfamily 4 group A member 2, LBD (Homo sapiens, UniProt P43354) | reporter gene, Gal4 hybrid reporter |  | 10 µM | relative to: vehicle | activation | 2.4 fold
NC(=O)NO | NADH dehydrogenase [ubiquinone] iron-sulfur protein 7, mitochondrial/NADH dehydrogenase [ubiquinone] iron-sulfur protein 2, mitochondrial/MT-ND1 | complex I-dependent respiration, Seahorse XF96 | HCT-116 | 300 µM, 24 h | relative to: control | oxygen consumption rate | 85.7 ± 3.16%
OCC1CN(Cc2ccccc2)CC12CCN(CC1CCCCC1)CC2 (stereo not drawn) | Prelamin-A/C, isoform A (Homo sapiens, UniProt P02545) | CETSA | A549 | 100 µM, 24 h |  | delta Tm | 2.64 °C
NC(=O)NOCCCCCCCCCC[P+](c1ccccc1)(c1ccccc1)c1ccccc1.O=C([O-])C(F)(F)F | NADH dehydrogenase [ubiquinone] iron-sulfur protein 7, mitochondrial/NADH dehydrogenase [ubiquinone] iron-sulfur protein 2, mitochondrial/MT-ND1 | complex I-dependent respiration, Seahorse XF96 | HCT-116 | 1 µM, 24 h | relative to: control | oxygen consumption rate | 87.4 ± 3.09%
Nc1nc2c(ncn2[C@@H]2O[C@@H]3COP(=O)(O)O[C@H]3[C@H]2O)c(=O)[nH]1 | Cone cGMP-gated channel (Morone saxatilis, UniProt Q3I0N1+Q3I0N2) | channel current, agonist, suction electrode | cone outer segments | single cone shown, added: 0.5 µM Ca2+ |  | Hill coefficient | 1.8 and 2.1
Oc1ccc(/C=C/c2cc(O)cc(O)c2)cc1 | O-methyltransferase (Sorghum bicolor, UniProt A0A1B6PFV1) | ITC two-site model |  | exothermic site, added: sinefungin |  | ΔG | -10.4 kcal/mol
OCC(O)CCON=C1C(c2c(O)[nH]c3ccccc23)=Nc2ccccc21 (stereo not drawn) | TRPM8 | antagonist | HEK293 | 5 µM | relative to: control | remaining activity | 100 ± 16.4%
CC1=NCC[C@@H](C(=O)O)N1 | uncharacterized protein (Pelagibacter ubique, UniProt Q4FKZ8) | differential scanning fluorimetry | Candidatus Pelagibacter ubique | in-house screen |  | thermal shift | 13.9 °C
CN(C)C(=O)C(CCN1CCC(O)(c2ccc(Cl)cc2)CC1)(c1ccccc1)c1ccccc1 | Calcium-activated potassium channel subunit alpha-1, with LRRC26 γ1 subunit (KCNMA1, Homo sapiens, UniProt Q12791) | BK channel conductance, inside-out patch clamp |  | BKα/γ1, Vm 30 mV, nominally Ca2+-free |  | Hill coefficient | 0.831 ± 0.14
C#CCN(CCCN1CCN(C2CCCCC2)CC1)CC(=O)Nc1ccc(C(=O)c2ccccc2)cc1 | Sigma intracellular receptor 2 (TMEM97, Homo sapiens, UniProt Q5BJF2) | radioligand binding | RT-4 cell membranes |  | relative to: sigma1 Ki over sigma2 Ki | Ki ratio | 8.03
O=c1cc(NCCc2ccc(F)cc2)[nH]c(=O)[nH]1 | FFAR4 | antagonist, β-arrestin recruitment | CHO cells | 10 µM |  | inhibition | 11 ± 3%
CC[C@@H]1[C@H](F)C(=O)N[C@@H]1COc1nccc2cc(C(N)=O)c(OC)cc12 | Calcium/calmodulin-dependent protein kinase type 1D (CAMK1D, Homo sapiens, UniProt Q8IU85) | ATP-site probe binding, ActivX profiling | THP-1 cell lysate | 0.01 mM, Lys2 site |  | inhibition | -1.8%
Nc1nc2c(ncn2[C@@H]2O[C@H](COP(=O)(O)O)[C@@H](O)[C@H]2O)c(=O)[nH]1 | GUK1 (Homo sapiens, UniProt Q16774, R41A) | enzyme activity, NADH-coupled |  | 125 µM |  | reaction rate | 1.33 s⁻¹ and 0.521 s⁻¹ and 0.551 s⁻¹
Cc1cc(C)cc(COc2ccc3c(C)c(CCC(=O)O)c(=O)oc3c2C)c1 | GAP50 | binding, surface plasmon resonance |  | 1:1 binding model |  | koff | 0.953 s⁻¹
O=S(=O)(c1cccc2cnccc12)N1CCCNCC1 | TRPM8 | antagonist | HEK293 | 5 µM | relative to: control | remaining activity | 105 ± 2.35%
Nc1ncnc2c1ncn2[C@@H]1O[C@H](COP(=O)(O)OP(=O)(O)O)[C@@H](O)[C@H]1O | GUK1 (Homo sapiens, UniProt Q16774) | ITC |  | molar ratio 1.11 |  | ΔH | -1.2 kcal/mol
Cc1n[nH]c(CC(=O)N2Cc3c(-c4ccc(C(=O)N5CCCc6ccccc65)cc4)cnn3C[C@H]2C)n1 | E3 ubiquitin-protein ligase parkin (PRKN, Human, UniProt O60260) | nanoDSF |  | 200 µM | relative to: DMSO | ΔTm | -1.3 °C

SMILES | target | assay | test system | conditions | scale | measurement | value
Cc1nnc(NCc2cccc(Cl)c2)c2ccccc12 | GAP50 | binding, surface plasmon resonance |  | 1:1 binding model |  | koff | 1.73 s⁻¹
CCNC(=O)/C=C/c1cccc(Br)c1 | Sodium-dependent neutral amino acid transporter B(0)AT1 (SLC6A19, Homo sapiens, UniProt Q695T7) | inhibitor, FLIPR membrane potential | CHO-BC cells | 0.01 µM, unit not given | relative to: no inhibitor | remaining transport activity | 0.905
O=C(COc1ccc(C(F)(F)F)cc1C(F)(F)F)Nc1cc(C2CC2)nn1CC(F)(F)F | Kir3.1/Kir3.2 | thallium flux, activator | HEK293 |  | relative to: standard compound | Emax | 74%
O=C(NO)c1ccc(CN2CCCCc3ccccc32)c(F)c1 | benzodiazepine site, rat brain | radioligand binding |  | 10 µM |  | inhibition of radioligand binding | 21.4%
O=C(O)CCCCCCCNc1cc(=O)[nH]c(=O)[nH]1 | FFAR4 | agonist, β-arrestin recruitment | CHO cells | 10 µM |  | activation | 0%
O=C1O/C(=C\c2cc(F)ccc2OCCN2CCOCC2)c2cc(Cc3cccc(F)c3)[nH]c(=O)c21 | Dual specificity calcium/calmodulin-dependent 3',5'-cyclic nucleotide phosphodiesterase 1C, isoform PDE1C2 (PDE1C, Homo sapiens, UniProt Q14123) | enzyme activity, inhibitor |  | added: 3H-cGMP substrate |  | ligand efficiency | 0.31
CC[C@@H](C)[C@@H](NC(=O)[C@@H](Cc1ccc(O)cc1)NC(=O)[C@H]1CCCN1C(=O)[C@@H](CCCNC(=N)N)NC(=O)[C@H](N)Cc1c[nH]cn1)C(=O)N[C@H](C)C(=O)N[C@H](Cc1c[nH]cn1)C(=O)N[C@H](CCCNC(=N)N)C(=O)N[C@@H](C(=O)N[C@H](Cc1ccc(O)cc1)C(=O)N[C@H](CO)C(=O)N[C@H](Cc1ccccc1)C(N)=O)C(C)C | Transferrin receptor protein 1 (Tfrc, Mus musculus, UniProt Q62351) | flow cytometry | DC2.4 | 48 h, pH 7.4, unit not given | relative to: 0 h | surface expression | 0.423 and 0.436
Cc1ccccc1C(=O)N1NC(=Nc2ccccc2)SC1(C)C | GAP50 | binding, surface plasmon resonance |  | 1:1 binding model |  | koff | 0.000946 s⁻¹
NCc1ccc(F)cc1 | Maoa | substrate |  | pH 7.5, 25 °C |  | kcat of deuterated substrate | 0.02 ± 0.00167 s⁻¹
c1ccc(C(NCc2cccnc2)(c2ccccc2)c2ccccc2)cc1 | Potassium voltage-gated channel subfamily KQT member 1 (KCNQ1, Homo sapiens, UniProt P51787) |  |  | peak and end-pulse currents |  | fraction of electric field sensed | 30 to 40%
O=c1cc(NCCc2ccccc2F)[nH]c(=O)[nH]1 | FFAR4 | antagonist, β-arrestin recruitment | CHO cells | 10 µM |  | inhibition | 15 ± 4%
c1coc(-c2n[nH]cc2-c2ccnc3ccccc23)c1 | Serine/threonine protein kinase YCK2 (YCK2, Candida albicans, UniProt A0A1D8PKB4) | kinase binding, MIB/MS competition | Candida albicans lysate | 10 µM | relative to: DMSO, negative = stronger binding | log2 fold change | -0.79
O=C(CCCc1ccc(-c2ccccc2F)cc1)Nc1ccc(O)cc1 | TRPM8 | antagonist | HEK293 | 5 µM | relative to: control | remaining activity | 97.8 ± 6.92%
O=c1cc(NCCc2cccs2)[nH]c(=O)[nH]1 | FFAR4 | antagonist, β-arrestin recruitment | CHO cells | 10 µM, added: 4 µM TUG-891 |  | inhibition | -19 ± 8%
C=CC(=O)N1CCC(COCC(=O)N2CCN(c3nc(-c4cnc(N)nc4C(F)F)nc(N4CCOC[C@@H]4C)n3)CC2)CC1 | STE20/SPS1-related proline-alanine-rich protein kinase (STK39, Homo sapiens, UniProt Q9UEW8) | KINOMEscan |  | 1 µM |  | remaining binding | 100%
O=S(=O)(O)C1CCNCC1 | Sodium- and chloride-dependent taurine transporter (SLC6A6, Homo sapiens, UniProt P31641, Y138A) | binding, microscale thermophoresis |  | 122 nM, room temperature, added: 50 nM labelled protein | higher = more binding | normalised MST signal | 0.0549
O=C(COc1cc(Cl)ccc1Cl)NCc1cccs1 | Kir3.1/Kir3.2 | activator, thallium flux | HEK293 | concentration not given |  | activity | inactive
O=C1NC(=NO)NC(=O)C12CCc1ccccc12 (stereo not drawn) | GABA-A receptor; alpha-1/beta-3/gamma-2 (Homo sapiens, UniProt P14867+P18507+P28472) |  |  | 300 µM |  | Emax | 7%
NCc1ccc(C(F)(F)F)cc1 | Maoa | kcat/Km descending limb free E S, substrate |  | pH 6.5-9.5 |  | pKa2 | 9.3 ± 0.1
COc1ccc(-c2cc(OCC(=O)N(C)Cc3cccnc3C)nc(-n3nc(C)cc3C)n2)cc1 | Endoplasmic reticulum aminopeptidase 1 (ERAP1, Homo sapiens, UniProt Q9NZ08) |  |  | added: Leu-AMC substrate | relative to: IRAP over ERAP1 | selectivity ratio | > 200 fold
O=c1cc(NCCc2ccccc2)[nH]c(=O)[nH]1 | FFAR4 | agonist, β-arrestin recruitment | CHO cells | 10 µM | relative to: 30 µM TUG-891 | agonist effect | 2 ± 1%

For quick reference, copied from above:
SMILES | target | assay | test system | conditions | scale | measurement | value
O=C(O)CCCCCCCNc1cc(=O)[nH]c(=O)[nH]1 | FFAR4 | agonist, β-arrestin recruitment | CHO cells | 10 µM |  | activation | 0%
O=C1O/C(=C\c2cc(F)ccc2OCCN2CCOCC2)c2cc(Cc3cccc(F)c3)[nH]c(=O)c21 | Dual specificity calcium/calmodulin-dependent 3',5'-cyclic nucleotide phosphodiesterase 1C, isoform PDE1C2 (PDE1C, Homo sapiens, UniProt Q14123) | enzyme activity, inhibitor |  | added: 3H-cGMP substrate |  | ligand efficiency | 0.31
CC[C@@H](C)[C@@H](NC(=O)[C@@H](Cc1ccc(O)cc1)NC(=O)[C@H]1CCCN1C(=O)[C@@H](CCCNC(=N)N)NC(=O)[C@H](N)Cc1c[nH]cn1)C(=O)N[C@H](C)C(=O)N[C@H](Cc1c[nH]cn1)C(=O)N[C@H](CCCNC(=N)N)C(=O)N[C@@H](C(=O)N[C@H](Cc1ccc(O)cc1)C(=O)N[C@H](CO)C(=O)N[C@H](Cc1ccccc1)C(N)=O)C(C)C | Transferrin receptor protein 1 (Tfrc, Mus musculus, UniProt Q62351) | flow cytometry | DC2.4 | 48 h, pH 7.4, unit not given | relative to: 0 h | surface expression | 0.423 and 0.436
